Assay results gathered from unrelated publications.
A part holds a random share of what one study measured. Changes are numbered by the printed parent chain.

Set 1
Target: CCNB2, cyclin fold, Cln2 fusion (human)
Method: yeast growth competition, sequencing
Sample: yeast
Notes: weak parent motif
Baseline: not given
Reading: higher = stronger binding
Starting sequence: CDKN1B docking peptide (human); PSACRNLFGPVDH
Change | normalised enrichment score
F8D | -0.0894
L7S | 0.214
F8C | -0.308
A3E | 0.113
A3P | -0.485
D12A | 0.417
C4G | -0.282
P10Q | 0.207
R5N | -0.179
P10C | -0.0429
P10D | 0.293
P1Q | 0.233
V11N | 0.164
P1V | -0.301
F8Y | -0.374
H13D | -0.423
A3V | 0.0184

Set 2
Target: RING finger protein unkempt homolog, zinc fingers 1-6, GST-SBP tag (UNK, Homo sapiens, UniProt Q9C0B0, residues 30-357)
UniProt Q9C0B0, sequence (30-357, looked up): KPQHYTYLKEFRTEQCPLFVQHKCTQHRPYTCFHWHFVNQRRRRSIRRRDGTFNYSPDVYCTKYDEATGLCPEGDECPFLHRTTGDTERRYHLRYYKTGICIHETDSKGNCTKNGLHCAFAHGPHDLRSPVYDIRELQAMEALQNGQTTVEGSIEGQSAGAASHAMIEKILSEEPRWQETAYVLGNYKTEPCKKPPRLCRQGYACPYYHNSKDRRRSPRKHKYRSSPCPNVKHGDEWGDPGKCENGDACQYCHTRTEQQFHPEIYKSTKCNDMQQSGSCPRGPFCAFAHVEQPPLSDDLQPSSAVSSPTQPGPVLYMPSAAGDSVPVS
Method: RNA Bind-n-Seq
Form: RNA
Sample: in vitro
Tested at: not given
Notes: RNA with constant flanks, human and mouse sites, ends assumed
Baseline: input RNA pool
Reading: higher = stronger binding
Shared flanks, not repeated: GGGAGUUCUACAGUCCGACGAUC … CAACAGAGGAUUGAGCAUCA
Sequence | bound/input enrichment
CCACUUCGUAGUGUUUUGGAACAAACCAAGUUAAAGAAAGAAGAUAUUUAUGCAGUGGAGAUAGUUGGUGGUGCUACACGAAUCCCUGCGGUAAAAGAGAAGAUCAGCAAAUUUUUCGGU | 0.558 ratio
UUUAUUGCAGCAGUUGACCUAGAUGAGAUGUCGUUCACUUUUACUGAGCUACAGAAAAACAUAGAAAUCAGUGUCCAUAAAUUCUUUAACUUACUAAAAGAAAUUGAUACCAGUACCAAA | 0.541 ratio
AGAACCAAGACUUUGGCAGACCUUUUGGAAUCAUUUAUCGCAGCGCUGUACAUCGACAAGGACCUGGAAUAUGUCCACACUUUCAUGAACGUCUGCUUCUUUCCCCGGCUGAAGGAGUUC | 0.229 ratio
AGUUUCCAGUGAAAGUAAUAUGUAGUGCUUUUAUGAUAUUUGUGUGCAAUAUCCCCUCUUCCAUUGAGGAUAUUUGAUGUAAAGGAAAAAAAAAAACUCAGUUCCACAAUAAAAUACAAA | 0.462 ratio
GAUGUCAUUUCUUUUUUUUUUUUAAUAAAAAGGUUGAACUGUUUUUUUUUUUCUUUUUGGUAUUAAGUCCAUCUUGUGUUGGUACAUUGGCAGAGACAUAUGCUUUAAAAACUUAAAUAU | 0.551 ratio
CAGAAUGUCAACAGUGUAACUUUAUUUGUUCAGUCUAAUCAAGGAGAAGAAGAAACAACGAGAAUUUCAUAUUUUACUUUCAUUGGUACUCCAGUCCAGGCAACAAAUAUGAAUGACUUC | 0.125 ratio
UUUCUUCCACCUACCACCGUGGCUGGUGCCACUCUUUACUCAGUGGCAAUGUACGGUGGAUUAGUUCUUUUCAGCAUGUUCCUUCUGUAUGAUACCCAGAAAGUAAUCAAGCGUGCAGAA | 0.286 ratio
UUUUAAAAACCAAAAAGCAUAAACAUUCUGGUCCUUCAGCAAUGCUUUCUCUGAAGAAAUACUUAACGGAAGGACUUCUCCAGUUCACCAUUCUGCUGAGUUUGAUUGGGGUACGGGUGG | 0.252 ratio
CCUUCCCCUCCUACUACAACCACUGAGCCUGCUUCAGCCUCUGCCUCGACCACCACAGCUGUGACGGCUGUCACUACGGAAGUGGAUCUCUUUGGAGAUGCCUUUGCAGCUUCUCCUGGG | 0.475 ratio
CCUCCCAGAAAGCAAGUGUAUCGUUUCUUCUUUUAUAGUUGUAAAUAAUCCAGCCAGAGGUAGUUUCUAGCCUGUGCCAUAUAGAUGUUUCCUACGGUGUUCUCUCAACAAAGUGUUUAU | 2.56 ratio
CUCCCUUUUCACCCACCUUUCCUCCCUCACCUCUCCUCACCUCCACCCCCUCCCCAGAGCACUAGUCAUGCCGCAAAUGCUAGGAAGUGCCAUUUUCAUUUUCUCCACUGUGCGUGUGUG | 0.888 ratio

Set 3
Target: ABI1, truncated, D143A, DHFR fusion (Arabidopsis thaliana, UniProt P49597)
Method: DHFR PCA, dose-response
Sample: yeast
Notes: Hill fit, mean, not affinity
With: (+)-ABA, dose series
Reading: lower = more sensitive
Starting sequence: PYL1, truncated, DHFR fusion (Arabidopsis thaliana, UniProt Q8VZS8); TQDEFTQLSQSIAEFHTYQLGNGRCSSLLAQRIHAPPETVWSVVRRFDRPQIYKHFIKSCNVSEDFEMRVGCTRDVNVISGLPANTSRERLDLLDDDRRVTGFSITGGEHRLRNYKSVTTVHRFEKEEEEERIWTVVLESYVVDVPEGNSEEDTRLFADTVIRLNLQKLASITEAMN
Change | ABA EC50
T6R | 5.72 µM
D144I | 150 µM
L93G | 326 µM
R24P | 207 µM
F15Y | 2.01 µM
C25E | 298 µM
K168W | 1.9 µM
R88S | 3.35 µM
D65Y | 11.3 µM
C60M | 156 µM
R45K | 9.32 µM
E67A | 2.82 µM
R111T | 228 µM
E127A | 1.96 µM
S9H | 2.73 µM
T173M | 10.9 µM

Set 4
Target: Sal-like protein 4, full length isoform A (SALL4, Homo sapiens, UniProt Q9UJQ4, residues 1-1053)
UniProt Q9UJQ4, sequence (whole entry, looked up): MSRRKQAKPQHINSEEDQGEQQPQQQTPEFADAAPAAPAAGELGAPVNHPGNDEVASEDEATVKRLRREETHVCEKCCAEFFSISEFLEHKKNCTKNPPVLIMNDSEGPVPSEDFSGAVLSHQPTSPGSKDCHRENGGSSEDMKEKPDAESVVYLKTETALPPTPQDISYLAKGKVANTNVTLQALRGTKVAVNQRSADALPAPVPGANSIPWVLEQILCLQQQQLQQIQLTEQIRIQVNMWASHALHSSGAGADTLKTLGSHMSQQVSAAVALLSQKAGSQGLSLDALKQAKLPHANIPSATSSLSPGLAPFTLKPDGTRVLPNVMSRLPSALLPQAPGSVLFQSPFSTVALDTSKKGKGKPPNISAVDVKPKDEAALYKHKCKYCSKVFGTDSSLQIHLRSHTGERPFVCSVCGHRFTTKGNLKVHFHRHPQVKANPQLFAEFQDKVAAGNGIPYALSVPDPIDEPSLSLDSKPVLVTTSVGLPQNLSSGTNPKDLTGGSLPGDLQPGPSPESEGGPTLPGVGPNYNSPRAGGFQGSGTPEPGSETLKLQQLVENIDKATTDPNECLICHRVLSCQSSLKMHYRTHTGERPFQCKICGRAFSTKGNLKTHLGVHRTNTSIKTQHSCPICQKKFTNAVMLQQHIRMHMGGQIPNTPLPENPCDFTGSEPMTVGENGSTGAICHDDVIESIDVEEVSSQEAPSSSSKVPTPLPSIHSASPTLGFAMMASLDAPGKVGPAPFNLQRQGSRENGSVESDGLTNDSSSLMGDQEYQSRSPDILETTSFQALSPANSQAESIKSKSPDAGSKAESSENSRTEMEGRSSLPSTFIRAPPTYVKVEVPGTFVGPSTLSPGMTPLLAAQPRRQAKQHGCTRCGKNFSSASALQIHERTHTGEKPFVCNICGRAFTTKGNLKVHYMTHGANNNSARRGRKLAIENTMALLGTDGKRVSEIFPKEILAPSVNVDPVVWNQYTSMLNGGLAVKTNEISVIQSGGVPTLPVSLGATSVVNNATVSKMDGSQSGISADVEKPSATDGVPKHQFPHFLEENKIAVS
Method: universal PBM
Form: double-stranded DNA, one strand shown
Sample: in vitro
Tested at: 600 nM
Notes: 8-mer, flanks averaged, mean of replicates
Reading: higher = stronger binding
Sequence | E-score
GGGAAGGA | -0.154
AGTAACAT | 0.116
CGTGACAC | -0.0808
AATGTTCA | 0.192
AGATTCTG | 0.0413
GGCATTAA | 0.107
CCGCTGTC | -0.279
CCTGCTCG | -0.245
CAACTTTA | 0.219
AAAATGGA | 0.226
TGAAGTCA | 0.0481
TCCAACGA | 0.0379
CAGCACTC | -0.127
CTCCAGTC | -0.17
CCTCACAC | -0.0507
GAAAGTCC | -0.183

Set 5
Target: Interferon regulatory factor 5, full length, phosphomimetic (IRF5, Homo sapiens, UniProt Q13568-2, residues 1-514, S451D/S453D/S456D/S462D)
Method: protein-binding microarray
Form: double-stranded DNA, one strand shown
Sample: in vitro
Tested at: 940 nM top
Notes: 60-bp whole probe
With: salmon DNA 0.4 mg/ml
Baseline: random background probes
Reading: higher = stronger binding
Shared flanks, not repeated: GCCTAGCAC … GTCTTGATTCGCTTGACGCTGCTG
Sequence | fitted relative affinity [z-score]
TTAGATGCCAGTTTCGATTAGTGCTAG | 7.53
ACAGATGAGGAACCAAGGCCGTGCTAG | -0.648
GACGGTCTGGGGACTGGGGACGTGCTA | -0.144
ATAGATTTCAGTCTCGATTAGTGCTAG | 4.09
TGCTTTCCAATTCTCTTTTCGTGCTAG | 1.56
GACGGTTTCGACGTTCGGGACGTGCTA | 6.31
TAAGGTCTCCTTTTCCTTTAGTGCTAG | 0.765
TTAGATTTCAGGCTCGATTAGTGCTAG | 0.462
TCAGCTTTCCTTCATGCACTGTGCTAG | 0.636
TTAGGTTTCAGTATCGATTAGTGCTAG | 9.28
TTAGGTATCGACGCTGGGTTAGTGCTA | 4.28
GACGGACTGTACACTGGGGACGTGCTA | -0.444
CCGGGTTTCACCATGTTGGCGTGCTAG | 4.04
GAGGGTTTCGGGACTGGGGACGTGCTA | 4.91
TGATGACTGGAGTCTGGACTAGTGCTA | -0.663
TTAGTTTTCAATTTTTGCATGTGCTAG | 1.02
GACGGTCTCGACTTTCGGGACGTGCTA | 1.9
TCACCTATCAGTTTAATACTGTGCTAG | 0.41
GACGGTATCATTATCCTGACGTGCTAG | 2.75
TTAGGTATTGACTATCGGTTAGTGCTA | 0.271
TCATTAATGCTTCTGGAACTGTGCTAG | 0.227
GACGATTTCTGTCTCGAGACGTGCTAG | 1.76
GGCTTTTTTTTTTTTTTTTTGTGCTAG | 0.703
AAATGTGTTAGAAACAGGTTGTGCTAG | -0.657
GACGAACGGGGGACTGGAGACGTGCTA | 0.94

Set 6
Target: RNA binding protein fox-1 homolog 2, RRM domain, GST-SBP tag (RBFOX2, Homo sapiens, UniProt O43251-10, residues 100-194)
Method: RNA Bind-n-Seq
Form: RNA
Sample: in vitro
Tested at: 365 nM
Notes: natural RNA segment, single round, ends assumed
Baseline: no-protein control
Reading: higher = stronger binding
Shared flanks, not repeated: GGGAGUUCUACAGUCCGACGAUC … UGGAAUUCUCGGGUGCCAA
Sequence | RBNS enrichment (R)
UGUUUCUUUUUCUGUCUUCUAGACUAAAUAGAGUAUCAUCCAAAUAAUGGGGCCUAUGACUUGAAUGAAUAGAAAUGAAUAAGCUGGUGUUUGUUUUUUCAAAAUGGAAG | 0.43
GUUAUAGAUUUCCUACCUAACCGGGAUGAUGAUGCACAGAACUCUAAAGCCAGUAGUGUGGCAACAGAAUAGCACAGUAUAACUCAGUUGAGACAUGACUUCAAGACUCG | 0.508
CUUUCUCCUUUCAAAAAAUGUCUACUUUGUUUUGGUCCUAGGCAUUAGGUAAUAUAACUGAUAAUAUACUGAAACAUAUAAUGGAAGAUGCAGAUGAUAAAACUAAUUUU | 0.477
UGAUCUUAAUUGUGGAGGUGCAACUUGCCAGGAGGGAAGAAACAAUCUAGCACUUGCAGGCAUUCCAGGUAGAAGAGCUUUGCCCGUGCUCCAGCUAGCCUACACUGAUC | 0.543
CAUAUUAUUUUUAGAUGAUGUAACAUAGCCAUCAAAAUUAAUAUUAUGUAAUGCCUAAUACUUAGUAUGUAAAUGUCACGAGAUCAUUUUUACAUUAAACGUGAAAAAAA | 0.64
UUUUAAACUACAGAUGGACUUGGUUUGAGGGAGGGGGAAUCACAGAUUUGGUGCUAAGUUAAUUAGAAACUGGCAGCGUUUUACAGUAGUACACCAGCCUGGAUGUUUUU | 0.73
AUGCUGUUUGGGGCCCUCCCCCCAAGACUUCUCUCACUUGUUGAGUCUGUGUGCUCUCGCAAUGUUCCUGUCUAAUUCUUGACUGAUUCUGGGUCUGUCCUGACCUCUAG | 0.407
AUGAUUUUAAGAAUUUGGCUUAAAAAUUGAUUGAUACAACGUAUUAUUUGUACUAAGAAGUAACUUGACCCAAAACACCUUUUAUGUUUGCUUAGGGUAUAUUUUUUCAG | 0.472
CCAGCGCCCCCGGGCACUGCUGCUCAUAGGUACCUUUCCACUGCCUCCUCCCUGCUCUCCUGUGCAGGAAUGUCUCUGAGCUGUUCACGUUGAUGCUUCUUGGUUGGCAA | 0.763
UAAAUAUCUCUCAGGAAUGGAAGUGUCAAUGAGUAGUCAGUAUUACUAUACUCUUGUUUGUAAGAAUAUAUUUUCCUUAUUGUUGGAGUCUCCAGAGGUUAUUGGAAGGA | 0.524
UUAGCAGACUGCAGUCAAUCCACAUUCAAUAAAAAGUAUAUAAUGCCCAUUUUUAUAUGCACGUUUUUAAACUUCCAAGUUCUGAAAAUUGUUUACUGGUUAUCUCUAUU | 1.15
GGUGCACGUCGCGGAAAUACUGGUUUAACUACUAGUGUGUUACUGCCUCAUUUAUCUACAUAACAUUAUUAACUAGAACAUAAUGCUUUCAAAGUUUAAGUUAAUGUUAU | 0.389
